Measurements collected from several papers.
Lines come from different studies, so protocols differ. Numbers after ± are the reported error.
Cell line: HeLa

For COc1cccc(NC[C@@H](O)Cn2c3ccc(Br)cc3c3cc(Br)ccc32)c1, the GI50 was 23.5 µM (CellTiter-Glo; 48 h).
O=C1/C(=N\NC(=S)NN=Cc2cccs2)c2ccccc2N1Cc1ccccc1: “minimum cytotoxic concentration” 20 µM (cell morphology).
The cytotoxicity of CCCCNC(P(=O)(O)O)P(=O)(O)O is reported as 8 ± 3% (MTT; serum-free medium; 100 µM, 24 h).
Under cellular uptake, S=c1n(-c2ccccc2)c2c3ccccc3nc3[n+]2[n]1[Ir-3]12([S]3)([c]3cccc4ccc5ccc[n+]1c5c34)[c]1cccc3ccc4ccc[n+]2c4c13 is recorded as “decreased” (ICP-MS; 10 µM, 1 h, added: endocytic or metabolic inhibitors).
With CC[C@H](C)[C@@H]1NC(=O)[C@H](C)NC(=O)[C@H](C)NC(=O)[C@H]([C@@H](C)O)NC(=O)[C@H](Cc2ccccc2)NC(=O)[C@@H]2CSSC[C@@H]3NC(=O)[C@H](C(C)C)NC(=O)[C@H](CCCCN)NC(=O)[C@H](CO)NC(=O)[C@H](CCCCN)NC(=O)[C@@H]4CSSC[C@H](NC(=O)[C@H](CO)NC(=O)[C@H](CCC(=O)O)NC(=O)CNC(=O)[C@H](CSSC[C@H](NC(=O)CNC1=O)C(=O)N[C@@H](CO)C(=O)N4)NC(=O)[C@@H]1CCCN1C(=O)[C@H](Cc1ccccc1)NC(=O)CNC(=O)[C@H](CC(N)=O)NC(=O)[C@H](C)NC(=O)[C@H](Cc1ccc(O)cc1)NC3=O)C(=O)N[C@@H](C(C)C)C(=O)N[C@@H](Cc1ccc(O)cc1)C(=O)N[C@@H](CC(C)C)C(=O)N1CCC[C@H]1C(=O)N2 the CC50 was 1.02 ± 0.03 µM (resazurin; 24 h).
Under “endosomal escape efficiency”, N=C(N)NCCC[C@@H]1NC(=O)[C@H](Cc2csc3ccccc23)NC(=O)[C@@H](Cc2ccccc2)NC(=O)[C@H](Cc2ccccc2)NC(=O)[C@H](CCC(=O)NCCOCCOCC(=O)N[C@@H](CCCCNC(=O)c2ccc3c(c2)C(=O)OC32c3ccc4cc(O)ccc4c3Oc3c2ccc2cc(O)ccc32)C(N)=O)NC(=O)[C@@H](CCCNC(=N)N)NC(=O)[C@H](CCCNC(=N)N)NC(=O)[C@@H](CCCNC(=N)N)NC1=O is recorded as 138 ± 6% (2.0 µM, 1% FBS; relative to: CPP12).
Oc1ccc(O)c2ccccc12: cytotoxicity “not toxic” (20 µM).
For CC[C@H](C)[C@H](NC(=O)[C@H](CC(C)C)NC(=O)[C@@H](NC(=O)[C@@H](N)CC(C)C)[C@@H](C)CC)C(=O)N[C@@H](CC(C)C)C(=O)N[C@@H](C)C(=O)N[C@@H](C)C(=O)N[C@@H](CCCCN)C(=O)N[C@@H](CC(C)C)C(=O)N[C@@H](C)C(=O)N[C@@H](CCCCN)C(=O)N[C@@H](C)C(=O)N[C@@H](CC(C)C)C(=O)N[C@@H](CCCCN)C(=O)N[C@@H](CCCCN)C(=O)N[C@@H](CCC(=O)O)C(=O)N[C@@H](C)C(=O)N[C@@H](CCCCN)C(=O)N[C@@H](C)C(=O)N[C@@H](CC(C)C)C(=O)N[C@@H](CCCCN)C(N)=O, the IC50 was 31.1 µM (cytotoxicity, MTT; 1 h, 37 °C).
For CC[C@H](C)[C@@H]1NC(=O)[C@H](C)NC(=O)[C@H](C)NC(=O)[C@H]([C@@H](C)O)NC(=O)[C@H](Cc2ccccc2)NC(=O)[C@@H]2CSSC[C@@H]3NC(=O)[C@H](C(C)C)NC(=O)[C@H](CCCCN)NC(=O)[C@H](CO)NC(=O)[C@H](CCCCN)NC(=O)[C@@H]4CSSC[C@H](NC(=O)[C@H](CO)NC(=O)[C@H](CCC(=O)O)NC(=O)CNC(=O)[C@H](CSSC[C@H](NC(=O)CNC1=O)C(=O)N[C@@H](CO)C(=O)N4)NC(=O)[C@@H]1CCCN1C(=O)[C@H](Cc1ccccc1)NC(=O)CNC(=O)[C@H](CC(N)=O)NC(=O)[C@H](CCCCN)NC(=O)[C@H](Cc1ccc(O)cc1)NC3=O)C(=O)N[C@@H](C(C)C)C(=O)N[C@@H](Cc1ccc(O)cc1)C(=O)N[C@@H](CC(C)C)C(=O)N1CCC[C@H]1C(=O)N2, the CC50 was 1.08 ± 0.04 µM (resazurin; 24 h).
CC(=O)Nc1ccc(-c2csc(NS(C)(=O)=O)n2)cc1 — result for cytotoxicity: “not toxic” (resazurin; concentration not given).
NCCCC[C@H](NC(=O)[C@H](CCCCN)NC(=O)[C@H](Cc1ccccc1)NC(=O)[C@H](Cc1ccccc1)NC(=O)CCCc1ccc2ccc3cccc4ccc1c2c34)C(N)=O: cytotoxicity “not toxic” (MTT; concentration not given, 24 h, normoxia).
CC[C@H](C)[C@@H]1NC(=O)[C@H](C)NC(=O)[C@H](C)NC(=O)[C@H]([C@@H](C)O)NC(=O)[C@H](Cc2ccccc2)NC(=O)[C@@H]2CSSC[C@@H]3NC(=O)[C@H](C(C)C)NC(=O)[C@H](CCCCN)NC(=O)[C@H](CO)NC(=O)[C@H](CCCCN)NC(=O)[C@@H]4CSSC[C@H](NC(=O)[C@H](CO)NC(=O)[C@H](CCC(=O)O)NC(=O)CNC(=O)[C@H](CSSC[C@H](NC(=O)CNC1=O)C(=O)N[C@@H](CO)C(=O)N4)NC(=O)[C@@H]1CCCN1C(=O)[C@H](Cc1ccccc1)NC(=O)CNC(=O)[C@H](CC(N)=O)NC(=O)[C@H](CCCCN)NC(=O)[C@H](Cc1ccc(O)cc1)NC3=O)C(=O)N[C@@H](C)C(=O)N[C@@H](Cc1ccc(O)cc1)C(=O)N[C@@H](CC(C)C)C(=O)N1CCC[C@H]1C(=O)N2 gave a CC50 of 6.01 ± 1.21 µM (resazurin; 24 h).
With CCN(CC)CC(=O)NNc1ccccc1Sc1cc(Cl)ccc1[N+](=O)[O-] the CC50 was 30 µM.

Repeated from above:
The cytotoxicity of CCCCNC(P(=O)(O)O)P(=O)(O)O is reported as 8 ± 3% (MTT; serum-free medium; 100 µM, 24 h).
